{"data": "Experimental data pooled from the literature", "target": "Serine/threonine-protein kinase pim-3 (PIM3, Homo sapiens, UniProt Q86V86)", "note": "Values joined by “and” are separate records of one study, mostly repeats; a detail may differ."}
{"SMILES": "COc1ccc(NC(=O)Nc2ccc3c(c2)C(=O)N(C(C)CO)CC(C)C(CN(C)Cc2ccc4c(c2)OCO4)O3)cc1 (stereo not drawn)", "test": "kinase activity, KinaseProfiler", "conditions": "0.03 µM, species human", "scale": "relative to: control", "endpoint": "remaining activity", "value": "103%"}
{"SMILES": "C=CC(=O)N1Cc2nc(-c3cc(-c4cc(Cl)cnc4Cl)c(F)cc3F)n(-c3ccncn3)c2C1", "test": "cell-free assay, inhibitor", "conditions": "1 µM", "endpoint": "inhibition", "value": "7.6%"}
{"SMILES": "C=C1CCCCCCCCCC(CO)C1=O (stereo not drawn)", "test": "cell-free assay, competition with immobilised ligand", "conditions": "10 µM", "endpoint": "remaining binding", "value": "100%"}
{"SMILES": "CC(C)=CC1OC(C)(C)C2C=C3C(=O)C(Cl)=CC(O)C3C3C(O)C4OC4C(=O)C132 (stereo not drawn)", "test": "cell-free assay, competition with immobilised ligand", "conditions": "10 µM", "endpoint": "remaining binding", "value": "95%"}
{"SMILES": "Cc1cnc2nc1Nc1cccc(c1)COC/C=C/COCc1cc(ccc1OCCN1CCOCC1)N2", "test": "binding", "conditions": "0.1 µM", "endpoint": "remaining binding", "value": "99%"}
{"SMILES": "Cc1cccc(O[C@H]2CCC[C@@H](C(C)CNCc3ccncc3)C2)c1 (relative stereo)", "test": "enzyme activity, inhibitor", "conditions": "10 µM", "endpoint": "inhibition", "value": "-1%"}
{"SMILES": "CN1CCN(Cc2ccc(NC(=O)c3cccc(C#Cc4cnc(N)c5ncccc45)c3)cc2C(F)(F)F)CC1", "test": "cell-free assay, competition with immobilised ligand", "conditions": "50 nM", "endpoint": "remaining binding", "value": "81%"}
{"SMILES": "NC(=O)C[C@H]1CCc2sc3ncnc(O[C@H]4CC[C@H](N5CCOCC5)CC4)c3c21", "test": "enzyme activity, inhibitor", "conditions": "10 µM", "endpoint": "inhibition", "value": "2%"}
{"SMILES": "COc1c(Cl)cccc1Nc1c(-c2ccncc2C#C[C@@]2(C)CCCN2C(=O)/C=C/CN(C)C)[nH]c2c1C(=O)NCC2", "test": "binding, competition with immobilised ligand", "conditions": "3 µM", "endpoint": "remaining binding", "value": "100%"}
{"SMILES": "Cc1ccc(C)c(-c2ccc3nc(NC(=O)C4CCCCC4)nn3c2)c1", "test": "enzyme activity, Dundee kinase panel", "conditions": "10 µM", "endpoint": "remaining activity", "value": "78%"}
{"SMILES": "Nc1nc(Nc2ccccc2)sc1C(=O)c1ccccc1", "test": "enzyme activity, inhibitor", "conditions": "10 µM", "endpoint": "remaining activity", "value": "32%"}
{"SMILES": "CCn1cc(C(=O)O)c(=O)c2c(N)c(F)c(NC3CCCCC3)cc21", "test": "kinase activity", "conditions": "0.1 µM, added: ATP at Km", "endpoint": "inhibition", "value": "54.7%"}
{"SMILES": "C=CC(=O)N1CCCC(n2c(=O)c3ncccc3n(Cc3ccc(Oc4ccccc4)cc3)c2=O)C1 (stereo not drawn)", "test": "cell-free assay, competition with immobilised ligand", "conditions": "1 µM", "endpoint": "remaining binding", "value": "93%"}
{"SMILES": "CN1CC[C@@H](COc2cnc(C#N)cc2-c2ccn3nc(NC(=O)C4CC4)cc3c2)C1", "test": "enzyme activity, inhibitor", "conditions": "1 µM", "endpoint": "inhibition", "value": "-10%"}
{"SMILES": "Cc1cccc(-c2ccc3nc(NC(=O)C4CCOCC4)nn3c2)c1", "test": "enzyme activity, Dundee kinase panel", "conditions": "10 µM", "endpoint": "remaining activity", "value": "84%"}
{"SMILES": "O=C=[N][Ru-4]123([n]4c5ccc(O)cc5c5c6c(c7cc(F)c[n+]1c7c54)C(=O)NC6=O)[S+]1CC[S+]2CC[S+]3CC1 (stereo not drawn)", "test": "enzyme activity", "conditions": "100 nM, human enzyme, added: 10 µM ATP", "scale": "relative to: untreated", "endpoint": "remaining activity", "value": "30%"}
{"SMILES": "O=C(Cc1ccc(OCc2ccccc2)cc1)NC1(C(=O)O)CCN(C(=O)c2ccc(-c3cccc(Cl)c3)cc2)CC1", "test": "enzyme activity, inhibitor", "conditions": "10 µM", "endpoint": "activity vs control", "value": "87%"}
{"SMILES": "C=CC(=O)N1CCc2ccc(-n3c(=O)ccc4cnc5ccc(-c6cnn(C)c6)cc5c43)cc21", "test": "KINOMEscan", "conditions": "1 µM", "scale": "relative to: DMSO control", "endpoint": "remaining binding", "value": "100%"}
{"SMILES": "COc1cc(Nc2nc(C)cc(-c3cnn4nc(OC)ccc34)n2)cc(C(F)(F)F)c1", "test": "inhibitor", "conditions": "1 µM", "scale": "relative to: control", "endpoint": "remaining activity", "value": "83%"}
{"SMILES": "CNC(=O)C[C@H](Cc1ccc(C#N)cc1)NC(=O)c1cc(-c2ccc(CN[C@H](C)c3ccc(C)cc3)o2)ccc1Cl", "test": "enzyme activity, inhibitor", "conditions": "1 µM", "endpoint": "activity vs control", "value": "74%"}
{"SMILES": "C=CC(=O)Nc1cccc(-c2cnc3[nH]cc(C(=O)NC(C)(C)C)c3n2)c1", "test": "kinase activity", "conditions": "0.1 µM", "endpoint": "inhibition", "value": "1% and -3%"}
